Published values gathered from unrelated publications.
Every numbered part comes from another study and shows a few of its results, in no order. Substitutions count along the parent as printed.

Series 1 — method: RNA Bind-n-Seq; molecule type: RNA; sample: in vitro; concentration: 365 nM; relative to: no-protein control; direction: higher = stronger binding; endpoint: RBNS enrichment (R)
Target: RNA binding protein fox-1 homolog 2, RRM domain, GST-SBP tag (RBFOX2, Homo sapiens, UniProt O43251-10, residues 100-194)
Notes: natural RNA segment, single round, ends assumed
Shared flanks, not repeated: GGGAGUUCUACAGUCCGACGAUC … UGGAAUUCUCGGGUGCCAA
Construct (chain): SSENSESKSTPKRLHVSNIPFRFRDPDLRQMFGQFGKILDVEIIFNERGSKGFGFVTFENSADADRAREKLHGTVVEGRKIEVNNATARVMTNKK
CCACUCUCACUCUUGGUGCAACUGACUUCCACUUCUUAUGCAGCCACUCCCAGGUGCAUGCUUCAGUGAGUGCCACAUGCCACUAGCUUUUACCAAUAACCAUAUUCUGG: 2.01
UAGAGAGGAGCGGAAGAAGACCAUCGAGCUGACGGCACAUGACCGGCACCGGGCAGGGGCCAGUCCCUCAGCCCCUGGACCACUGGAGAAAAGGAAGACGAAGAGUUUGG: 0.607
GCAGUUGUGCACAGAUGUCUUUCCUUUACCGUUGGCCUUUCUGUCUGCCUCUCCUUCCUCUCUGCAGCCCAAAUGGAAAACAAUUAUUUACUCCAUUGGAGGGAAAGGAA: 0.276
CCCGGCCCACGGCACAGCAAUCCCCUGCGCGUGGAUUUCACCUCACCCUUUGUACCAGAUGUUGAGUGACCAGCUCUGUGGCCCUGUGUCGUCAGAGGCUUGUGAUUAAC: 0.379
CUAAGUGCCUUUACUUAGGAAAAGCCAGUACCACAUCAUGGCUUCCUUCUUCACUCAAAGGCUGCUUUGCUCUGAGUGGGGAAAGAGUGGGUGUUUUGUAGAAGCAUUGC: 0.278
CUCGGGAAGGGGGAAAAAGUUUAAAAUGGGGGAAAAAAAGCCAUCUUUUUAAACAAAAAUUAUUUUGCCUACAGAAAGGUUGUAGUUUUGAGCACAUGUUAAUUUUUUUC: 0.548
CAUAGGAAAUACUUGAUUUAAUUACAGGUCCAGGGAUGAGCUGAUGGUUGCUGGAGGAGGCCAGUGUAGAGCCAGUGAGAGAACUAGGAAUGACACUCAGGUUCACUGUG: 1.01
AGGGGUGUUUUUACUGUGUUUUUGUCGUUUCCUUUUUACGUGUGCUGUGAUGAAAGAGAAAAAUGCAGAGUGCCAGUCACUGUGGUGUCUGGGGGAAAUCACCGGGGUUC: 1.58

Series 2 — target: CCNB2, cyclin fold, Cln2 fusion (human); method: yeast growth competition, sequencing; sample: yeast; notes: weak parent motif; relative to: not given; direction: higher = stronger binding; endpoint: normalised enrichment score
Starting sequence: INSM1 docking peptide (human); PKAIRKLHFEDEV; partner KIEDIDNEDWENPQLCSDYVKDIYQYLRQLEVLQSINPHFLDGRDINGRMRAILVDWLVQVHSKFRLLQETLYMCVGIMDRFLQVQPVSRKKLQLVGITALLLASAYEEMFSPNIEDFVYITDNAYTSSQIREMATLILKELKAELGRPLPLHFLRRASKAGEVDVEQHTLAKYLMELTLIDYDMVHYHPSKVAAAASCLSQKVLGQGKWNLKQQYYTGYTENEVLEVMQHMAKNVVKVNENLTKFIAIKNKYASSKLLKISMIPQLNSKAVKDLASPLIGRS
R5S: 0.297
R5W: -0.204
A3F: 0.271
F9R: 0.0714
H8Q: 0.455
L7S: 0.619
E12K: 0.528
K2Q: 0.398
H8W: 0.00977
R5N: -0.26
E12M: 0.503
A3L: 1.2
K2M: -0.0546
K6R: 0.204
F9Y: 0.295
E12C: 0.359
K6E: 3.09e-05
I4G: -0.042
L7V: 0.468
L7W: 0.201
D11S: 0.351
R5V: 0.111
E12T: 0.24
H8C: 0.27
I4W: 0.301

Series 3 — method: protein-binding microarray; molecule type: double-stranded DNA, one strand shown; sample: in vitro; concentration: 2200 nM top; notes: 60-bp whole probe; added: salmon DNA 0.4 mg/ml; relative to: random background probes; direction: higher = stronger binding; endpoint: fitted relative affinity; shared flanks, not repeated: GCCTAGCAC … GTCTTGATTCGCTTGACGCTGCTG
Target: Interferon regulatory factor 7, full length, phosphomimetic (IRF7, Homo sapiens, UniProt Q92985, residues 1-503, S471D/S472D/S475D/S476D/S477D/S483D/S484D/S487D)
Target sequence (chain): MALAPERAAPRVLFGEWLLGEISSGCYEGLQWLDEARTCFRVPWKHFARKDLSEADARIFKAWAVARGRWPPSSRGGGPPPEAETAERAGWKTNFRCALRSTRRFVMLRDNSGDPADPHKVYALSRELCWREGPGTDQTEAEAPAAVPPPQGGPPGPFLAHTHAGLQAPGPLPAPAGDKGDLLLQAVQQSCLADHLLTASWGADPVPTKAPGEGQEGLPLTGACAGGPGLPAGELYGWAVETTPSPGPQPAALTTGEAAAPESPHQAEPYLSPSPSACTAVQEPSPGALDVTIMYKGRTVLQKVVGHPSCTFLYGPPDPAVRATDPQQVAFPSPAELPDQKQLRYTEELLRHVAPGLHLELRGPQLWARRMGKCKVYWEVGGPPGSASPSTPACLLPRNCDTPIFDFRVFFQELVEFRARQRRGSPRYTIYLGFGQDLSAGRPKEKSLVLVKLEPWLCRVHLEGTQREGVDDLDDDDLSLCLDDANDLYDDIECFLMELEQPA
TTAGAACTGAGTTTCCATTAGTGCTAG: 0.862 z-score
ATAGGTTTCGGTTCCGGTTAGTGCTAG: 11.8 z-score
GCCGGTATCCTTCTCCTGACGTGCTAG: 1.12 z-score
TTAGGTTTCCAACTGCTTTAGTGCTAG: 1.01 z-score
GACGGACTGGACTATCGGGATGTGCTA: -0.578 z-score
TTAGGTATCCTTTTCCTTCAGTGCTAG: 1.62 z-score
GACGATTTCGGGTTTCGAGACGTGCTA: 5.47 z-score
GACCGTCTCGGTTTCGGGACGTGCTAG: 3.52 z-score
GACGGTATCGTGACTGGGGACGTGCTA: -0.303 z-score
TAGGCTCCAGGTTCTCTGAAGGTGCTA: -0.453 z-score
TTAGGTTTCGGTATCGGTTAGTGCTAG: 7.68 z-score
GAGGATTTCAGTATCGAGACGTGCTAG: 0.49 z-score
GACGGACTGGAAACTGGGGACGTGCTA: -0.403 z-score
GACGATTTCAGTATCTAGACGTGCTAG: 0.746 z-score
GACGGTACCGGGTATCGGGACGTGCTA: -0.521 z-score
GAGGATTTCAGTCTCGAGACGTGCTAG: 0.432 z-score
TTAGATATCAGTCTCGATTAGTGCTAG: 0.269 z-score
TTAGAACTGAGTCTCAATTAGTGCTAG: -0.626 z-score
GACGGTATCGTACTGCTGACGTGCTAG: 0.368 z-score

Single results of other studies
PhoQ, residues 284 288 289 292 302 303 SSCLAV
fold induction (PhoP, residues 12 14 15 18 19 NMSSL (Escherichia coli, UniProt P23836); Sort-seq, refers to: YFP reporter; E. coli; PhoQ-PhoP variant library, added: 10 µM Mg2+; relative to: high Mg2+ state, higher = stronger signaling): 13.2

Excerpt of the above (series 3):
GACCGTCTCGGTTTCGGGACGTGCTAG: 3.52 z-score
GACGGTATCGTGACTGGGGACGTGCTA: -0.303 z-score
TAGGCTCCAGGTTCTCTGAAGGTGCTA: -0.453 z-score
TTAGGTTTCGGTATCGGTTAGTGCTAG: 7.68 z-score
GAGGATTTCAGTATCGAGACGTGCTAG: 0.49 z-score
